Measured values of several laboratories.
Lines come from different studies, so protocols differ. ± gives the spread as reported.
USP20 ZnF-UBD domain: Ubiquitin carboxyl-terminal hydrolase 20, ZnF-UBD domain (USP20, Homo sapiens, UniProt Q9Y2K6)
Chain of UniProt Q9Y2K6 (whole entry, looked up): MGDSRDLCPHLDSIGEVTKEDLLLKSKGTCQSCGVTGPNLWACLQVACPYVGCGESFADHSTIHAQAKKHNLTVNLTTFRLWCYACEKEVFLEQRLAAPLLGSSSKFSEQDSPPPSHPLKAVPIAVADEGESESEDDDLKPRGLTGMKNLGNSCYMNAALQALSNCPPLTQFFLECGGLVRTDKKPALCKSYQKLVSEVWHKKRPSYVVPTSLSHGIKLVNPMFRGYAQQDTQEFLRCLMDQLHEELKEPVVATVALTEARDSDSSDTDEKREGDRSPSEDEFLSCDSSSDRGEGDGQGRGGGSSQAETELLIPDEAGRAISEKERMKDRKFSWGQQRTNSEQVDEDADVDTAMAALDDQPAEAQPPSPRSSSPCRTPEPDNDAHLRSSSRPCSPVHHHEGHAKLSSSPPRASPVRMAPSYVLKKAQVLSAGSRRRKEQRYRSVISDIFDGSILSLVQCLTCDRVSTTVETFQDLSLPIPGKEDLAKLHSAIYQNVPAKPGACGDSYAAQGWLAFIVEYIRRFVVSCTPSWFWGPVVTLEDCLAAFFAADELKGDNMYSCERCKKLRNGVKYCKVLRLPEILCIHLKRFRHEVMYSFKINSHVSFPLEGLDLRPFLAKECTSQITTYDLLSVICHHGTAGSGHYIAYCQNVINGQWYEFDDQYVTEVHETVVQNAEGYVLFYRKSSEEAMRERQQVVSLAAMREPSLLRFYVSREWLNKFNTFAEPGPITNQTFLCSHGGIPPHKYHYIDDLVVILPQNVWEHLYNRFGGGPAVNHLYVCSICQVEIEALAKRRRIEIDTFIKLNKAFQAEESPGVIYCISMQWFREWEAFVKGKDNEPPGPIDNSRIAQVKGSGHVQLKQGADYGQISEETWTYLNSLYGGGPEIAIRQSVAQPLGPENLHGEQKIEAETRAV
Chain of UniProt P78368 (whole entry, looked up): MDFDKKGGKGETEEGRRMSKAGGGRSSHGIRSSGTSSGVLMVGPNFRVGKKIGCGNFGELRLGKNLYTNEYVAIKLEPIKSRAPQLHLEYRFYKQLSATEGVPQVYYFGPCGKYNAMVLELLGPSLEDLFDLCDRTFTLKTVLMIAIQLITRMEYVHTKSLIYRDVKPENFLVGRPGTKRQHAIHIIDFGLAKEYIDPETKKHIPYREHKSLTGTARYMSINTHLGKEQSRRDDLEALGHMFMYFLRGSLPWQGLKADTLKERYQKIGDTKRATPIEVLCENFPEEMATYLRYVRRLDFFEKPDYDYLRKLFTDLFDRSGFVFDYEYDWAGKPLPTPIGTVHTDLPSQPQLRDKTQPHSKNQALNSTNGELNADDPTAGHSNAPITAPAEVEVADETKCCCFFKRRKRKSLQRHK

SMILES	target or system	test	system	setting	how to read	endpoint	result
CCC(C)C(O)C(=O)O (stereo not drawn)	–	binding, equilibrium dialysis LC-MS	–	5 µM, thermostabilized A2AR-BRIL construct	baseline: no-protein control, direction not given	z-scored log2 fold change	-0.58
O=C(O)CNC(=O)c1ccc(S(=O)(=O)N2CCC(n3c(=O)oc4ccccc43)CC2)cc1	USP20 ZnF-UBD domain	–	–	–	–	Kd	> 1000 µM
CS(=O)(=O)N1CCN(Cc2cc3nc(-c4cccc5[nH]ncc45)nc(N4CCOCC4)c3s2)CC1	iCell Cardiomyocytes (hiPSC-derived)	cellular impedance	–	concentration not given, 24 h	baseline: control	cell index	87.5%
CC[C@@H]1[C@H](F)C(=O)N[C@@H]1COc1nccc2cc(C(N)=O)c(OC)cc12	Casein kinase I isoform gamma-2 (CSNK1G2, Homo sapiens, UniProt P78368)	ATP-site probe binding, ActivX profiling	THP-1 cell lysate	0.2 mM, Lys2 site	–	inhibition	67%
C=CC(=O)Nc1cccc(Nc2nc(Nc3ccc(OCCOC)cc3)ncc2F)c1	NLRP3 inflammasome (mouse)	–	mouse BMDM	10 µM	–	inhibition	36.8%
CC(C)C[C@H](NC(=O)C[C@H](O)[C@H](CC(C)C)NC(=O)[C@H](Cc1c[nH]cn1)NC(=O)CNC(=O)[C@@H](NC(=O)[C@H](C)NC(=O)[C@H](Cc1c[nH]c2ccccc12)NC(=O)[C@H](CCC(N)=O)NC(=O)[C@@H](Cc1ccccc1)NC(=O)COCCOCCNC(=O)CCC(C(=O)O)N1CCN(CC(=O)O)CCN(CC(=O)O)CCN(CC(=O)O)CC1)C(C)C)C(N)=O (stereo partly drawn) [lutetium-177 labelled]	–	–	BALB/c nu/nu mice, brain	intravenous, 50 pmol, 1 h, added: PA 300 µg	–	tissue uptake	0.03 ± 0.01 %ID/g
COc1cc(Nc2ncc3c(n2)-c2ccc(Cl)cc2C(c2c(F)cccc2OC)=NC3)ccc1C(=O)O	NLRP3 inflammasome (mouse)	–	mouse BMDM	10 µM	–	inhibition	57.4%
Cn1cc(-c2ccc3nnc(Sc4ccc5ncccc5c4)n3n2)cn1	iCell Cardiomyocytes (hiPSC-derived)	xCELLigence Cardio impedance	–	concentration not given, 2 h	baseline: control	beat amplitude	99.8%
N=C(N)NCCC[C@@H](NC(=O)CCOCCOCCNC(=O)[C@H](CCCCNC(=O)CC[C@H](NC(=O)c1ccc(NCc2cnc3nc(N)[nH]c(=O)c3n2)cc1)C(=O)O)NC(=O)CO/N=C/[C@H](F)[C@@H](O)[C@H](O)[C@H](O)CO)C(=O)NCC(=O)N[C@H](CC(=O)O)C(N)=O [fluorine-18 labelled]	–	–	female nude mouse, liver	intravenous, 1 µg, 2.5 h	–	tissue uptake	0.89 ± 0.16 %ID/g
O=C(O)c1cc(O)ccc1O	–	binding, equilibrium dialysis LC-MS	–	5 µM, thermostabilized A2AR-BRIL construct	baseline: no-protein control, direction not given	z-scored log2 fold change	0.209
COc1cc2ncnc(Oc3cccc(NC(=O)Nc4cc(C(C)(C)C(F)(F)F)on4)c3)c2cc1OC	NLRP3 inflammasome (mouse)	–	mouse BMDM	10 µM	–	inhibition	-46.8%
COc1cc2c(N3CCN(C(=O)Nc4ccc(OC(C)C)cc4)CC3)ncnc2cc1OCCCN1CCCCC1	iCell Cardiomyocytes (hiPSC-derived)	cellular impedance	–	concentration not given, 24 h	baseline: control	cell index	98.1%
CN1CCN(c2ccc3nc(-c4c(N)c5c(F)cccc5[nH]c4=O)[nH]c3c2)CC1	NLRP3 inflammasome (mouse)	–	mouse BMDM	10 µM	–	inhibition	60.1%
CN(C)C/C=C/C(=O)Nc1cc2c(Nc3ccc(F)c(Cl)c3)ncnc2cc1O[C@H]1CCOC1	iCell Cardiomyocytes (hiPSC-derived)	xCELLigence Cardio impedance	–	concentration not given, 2 h	baseline: control	beat rate	104%
NC(=O)C1=CN([C@@H]2O[C@H](COP(=O)(O)OP(=O)(O)OC[C@H]3O[C@@H](n4cnc5c(N)ncnc54)[C@H](OP(=O)(O)O)[C@@H]3O)[C@@H](O)[C@H]2O)C=CC1	–	binding, equilibrium dialysis LC-MS	–	5 µM, thermostabilized A2AR-BRIL construct	baseline: no-protein control, direction not given	z-scored log2 fold change	-0.937
CCn1c(=O)c(-c2cc[nH]n2)cc2c(C)nc(N)nc21	NLRP3 inflammasome (mouse)	–	mouse BMDM	10 µM	–	inhibition	26.6%
C[C@]12O[C@H](C[C@]1(O)CO)n1c3ccccc3c3c4c(c5c6ccccc6n2c5c31)CNC4=O	iCell Cardiomyocytes (hiPSC-derived)	cellular impedance	–	concentration not given, 24 h	baseline: control	cell index	90.3%
Cc1ncc(C[n+]2csc(CCO[P@](=O)(O)OP(=O)(O)O)c2C)c(N)n1	–	binding, equilibrium dialysis LC-MS	–	5 µM, thermostabilized A2AR-BRIL construct	baseline: no-protein control, direction not given	z-scored log2 fold change	-0.128
O=C(O)CCc1ccc2c(c1)OCO2	USP20 ZnF-UBD domain	–	–	–	–	Kd	> 1000 µM
C#Cc1cccc(Nc2ncnc3cc(OCCOC)c(OCCO)cc23)c1	NLRP3 inflammasome (mouse)	–	mouse BMDM	10 µM	–	inhibition	53.9%
O=C(O)[C@@H](O)[C@H](O)[C@H](O)[C@@H](O)C(=O)O	–	binding, equilibrium dialysis LC-MS	–	5 µM, thermostabilized A2AR-BRIL construct	baseline: no-protein control, direction not given	z-scored log2 fold change	0.195
Cn1cc(-c2ccc(-c3cncc(Cl)c3N3CCC4(CCNC4=O)CC3)cc2)cn1	COLO 205	gene expression, microarray, measured: CXCL16 mRNA	–	concentration not given, 6 h	baseline: untreated cells	log2 fold change	2.46
Cc1ncc(CO)c(C=O)c1O	–	binding, equilibrium dialysis LC-MS	–	5 µM, thermostabilized A2AR-BRIL construct	baseline: no-protein control, direction not given	z-scored log2 fold change	0.509
OC(CCN1CCCCC1)(c1ccccc1)C1CC2C=CC1C2 (stereo not drawn)	–	resting-state EEG	healthy elderly humans	oral, 2 mg, eyes closed, LS mean	–	power, Delta EEG, Pz-O1	8.2 µV²

Repeated from above:
SMILES	target or system	test	system	setting	how to read	endpoint	result
NC(=O)C1=CN([C@@H]2O[C@H](COP(=O)(O)OP(=O)(O)OC[C@H]3O[C@@H](n4cnc5c(N)ncnc54)[C@H](OP(=O)(O)O)[C@@H]3O)[C@@H](O)[C@H]2O)C=CC1	–	binding, equilibrium dialysis LC-MS	–	5 µM, thermostabilized A2AR-BRIL construct	baseline: no-protein control, direction not given	z-scored log2 fold change	-0.937
